Measured values pooled from the literature.
Every numbered part comes from another study and shows a few of its results, in no order. Substitutions count along the parent as printed.

Study 1
Target: RING finger protein unkempt homolog, zinc fingers 1-6, GST-SBP tag (UNK, Homo sapiens, UniProt Q9C0B0, residues 30-357)
Method: RNA Bind-n-Seq
Form: RNA
Sample: in vitro
Concentration: not given
Setting: RNA with constant flanks, ends assumed
Baseline: input RNA pool
Reading: higher = stronger binding
Shared flanks, not repeated: GGGAGUUCUACAGUCCGACGAUC … CAACAGAGGAUUGAGCAUCA
Target sequence (chain): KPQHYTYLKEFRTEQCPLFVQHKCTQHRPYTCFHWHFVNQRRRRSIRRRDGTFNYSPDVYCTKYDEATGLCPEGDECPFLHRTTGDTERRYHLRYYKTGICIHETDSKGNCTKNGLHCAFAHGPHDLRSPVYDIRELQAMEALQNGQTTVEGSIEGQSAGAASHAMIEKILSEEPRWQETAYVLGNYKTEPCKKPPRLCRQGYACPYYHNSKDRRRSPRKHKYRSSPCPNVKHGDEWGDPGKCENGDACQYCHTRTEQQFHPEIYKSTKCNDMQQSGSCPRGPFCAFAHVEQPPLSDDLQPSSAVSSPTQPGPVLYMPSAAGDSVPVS
Sequence	bound/input enrichment [ratio]
CAACCUCAGAGCCCUGACUUCCUGGACAUCACCAACCCCAAAGCCGUAUUAGAAAACGCACUCCGGAACUUUGCCUGUCUGACCACCGGGGAUGUGAUUGCCAUCAACUAUAAUGAAAAG	0.698
AAAUCGUGUGUGUCCAAUAUUGAAAGUGCUUUAUCUACACUCCAGUAUGUAAGCAGUACCGCCGUUUCUUUAGAGAAUAGGUCAGCCAUUGUAAAGUACAAUGCAAGCUUAGUCACUCCA	0.329
AGCUUGGAUUCUAAGGCGAAUAUUGUACAUGGUCUGUCAGUCUUGGAAAUCUGUCUUAUAACCGCAAUGAAACAUUUAAAUGACAUAUAUGAAGAGGAGCCCUUUAAUUUUCAAAUGGUG	0.645
CUUGCUUUCUGUAGGAGAAUUGAACAGCACUAUUUUGAAGAUCGUGGUAAAGGCAGGCUGUCACCGAGUUAUGUGUUAGUCUCAGGAGUCUUAACUUUUGAAAUAUGUUUUACUUGAAUG	0.308
AUCAUACCAUCAAAGGAUAAGAAUAUUUUGCCAAAGGUUUUCCAUUAUUAUGGCCCUGCUUCCGAAUUUGUGCAGAUGAUAAAAUUAUCAGAUCUACCCUCCUGCUAUAUGUCGGAUAUU	0.245
CAGCUGCUUACACAAGAUGUAGAAAAAUUUUGUAACAGUGUAGUCGAUCUGUAUUCAAAUCUCCGUAAGCCAUUUUUAGACAUAGUUUUGUAUAUCUUUAAGUUAACGAGUGCAAUUGGA	8.05
AUAUCUUUUGUUUUGGCUUGGUUUGAAGAAGGUGAAGAAACAAUUACAGCCUUUGCCGAACCUUUUGUAAUUUUACUCAUAUUAGUAGCCAAUGCAAUUGUGGGUGUAUGGCAGGAAAGA	0.631
GAGUGUGUGCUUGUGGAGUGGCGAGAUGGAUCAGAGAAGAACAAAGAGUUUCUUCCUCGAUCCGGAUCUUCUAUUGAGCACAUCUCUGUCUCACCUGCAGGAGAUUUGUUCUGUACUUCU	0.0375
UAGUGAACAAUGACCUCAUUUUAUUUUCUAUGUUAGUUAUUUAUUUCAAAAUUUACAUUUCCGUUUAUUUUCGUCUGUAAAGCGUAUGUUUCGCACUGCUCUUUUACUCUGAGGGUUUAA	106
UUCAUCUCUCAUUUUAUAUGUCCAGAAAUGGCUUUGAAUUUUAAGCAAUUACUAGUUUUAAUCCGCUCUGCCCUCAUGAAGUAUUAUUAUAAUUCACCAUAAACAGCUAUCUGUCUGAAU	18.2
ACCUCCAGGGUGUACUCCAGAGACAGGACUCUCAAACCACGCGGAGUGUCCUUUUACCUGGACCGGACUCUGUGGCUGGCCAAGUCCACCUCCUCAUCCUUUGCAUCAUUUAUAGUUCAA	0.281

Study 2
Target: ABI1, truncated, D143A, DHFR fusion (Arabidopsis thaliana)
Method: DHFR PCA, deep sequencing
Sample: yeast
Setting: methotrexate growth selection, single substitutions
Added: (+)-ABA 0.11 µM
Baseline: wild-type fitted maximum
Reading: higher = stronger binding
Parent: PYL1, truncated, DHFR fusion (Arabidopsis thaliana); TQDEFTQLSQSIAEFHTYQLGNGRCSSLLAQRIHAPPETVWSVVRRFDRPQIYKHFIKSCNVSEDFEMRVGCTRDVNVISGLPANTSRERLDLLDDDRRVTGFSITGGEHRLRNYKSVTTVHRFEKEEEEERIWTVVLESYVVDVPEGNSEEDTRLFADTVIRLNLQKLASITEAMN; partner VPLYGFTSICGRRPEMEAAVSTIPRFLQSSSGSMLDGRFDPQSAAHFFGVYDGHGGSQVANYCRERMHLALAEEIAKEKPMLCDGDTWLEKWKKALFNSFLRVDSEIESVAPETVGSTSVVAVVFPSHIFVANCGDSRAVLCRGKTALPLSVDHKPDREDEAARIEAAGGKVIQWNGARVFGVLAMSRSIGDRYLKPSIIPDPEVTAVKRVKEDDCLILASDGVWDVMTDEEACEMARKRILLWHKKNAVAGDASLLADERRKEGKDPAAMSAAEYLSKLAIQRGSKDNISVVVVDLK
Substitution	relative binding score
T173N	3.55%
E14M	10.4%
S9C	26.3%
D48A	-4.43%
V143M	-0.586%
H55V	66%
E64W	3.77%
Q19G	10.6%
V44D	-0.824%
S117V	-3.62%
L93W	0.304%
I79Q	9.47%
R113N	18.1%
Y115E	-3.75%
V145Q	0.00162%
H16L	-1.99%
F124G	13.1%
T1P	34.8%
V43P	-7.98%
L91F	-1.77%
S80P	-3.52%
P37L	5.72%
S117T	-1.2%

Study 3
Target: RNA binding protein fox-1 homolog 2, RRM domain, GST-SBP tag (RBFOX2, Homo sapiens, UniProt O43251-10, residues 100-194)
Method: RNA Bind-n-Seq
Form: RNA
Sample: in vitro
Concentration: 365 nM
Setting: natural RNA segment, single round, ends assumed
Baseline: no-protein control
Reading: higher = stronger binding
Shared flanks, not repeated: GGGAGUUCUACAGUCCGACGAUC … UGGAAUUCUCGGGUGCCAA
Construct (chain): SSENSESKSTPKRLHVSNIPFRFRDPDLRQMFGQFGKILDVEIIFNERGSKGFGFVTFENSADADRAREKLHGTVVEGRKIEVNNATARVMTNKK
Sequence	RBNS enrichment (R)
AAGAGACAGAGACAGAUGGGGUGAGGGGGGCAUUUGAGCUCCUAUGUUUUGUUCCCUAUUAUAGAGUAUAUGCAAAAUUUGUCCCAGAUCUUCUUUGACUUUGUGCUUGC	1.08
UUGUUCAUUUAAUAGCUUCUAAAAGGCCUUUUUGUUAUACAGUGCUUUUUUUCUAGUUUUAUGGACUUGGUUACUGUAAUAAUGUCUUGUUUUUAGCCAUGUAACUACAA	1.11
CUAUUUUGAAGAUUAAAUGCACACUUUUUAUAUAAUGUGACCAGUUUAAAUGUAGUUUGUAUUGUACUGGGGGACCUUUCGUUGUUGUUGUUUGCUUAAACUGUGAUUUU	7.98
GUUGUAUUUUGUUGGUAAUUAUUUUGGUACUUCUAAGAUGUAUAUUUAUUAAACAGAUUUUUACAGAAGCAUUGUCCCGCUCGUUUGCUAUUCUGAGUGGCUUGUUCCUG	0.657
UACAAAUAAAUACCAUAACAGUUACUUGGUUAGACAUCAAAUCUGUGUGCAUGACUAUGUGCUUAUCCACUUAAGACAAUAGGUAAAAGGGGAUCUGAGAAAUUAUGUAA	5.94
AACGUGUUGGUGCUAUAAGCUGCUUCAAAUACCAGUUUGUCUGUAGUGUGUACUCACCUAAUCACUUGUUAUCCAGUGCCUGUUCUAGGUUUAUGGACUUAACUAUUUCU	0.179
GGUUCACUUGAUUGUCUGUAUUUCUGUGUGGUUGUAGCAAGGACUCAGCCUCAUGUAGCACGAAUAGGGGUGUGGUUCAUGGCGUGUUGACCCAGCAGAGCACUCCCUCC	3.95
AAUCUGUGGAUUAUGUUCCUGAUCAUUUGCAGUUAAGGAAUUUAAAUAAAUCACAUGUUAACGACAAGAAUUUCUGUUUUUCUCUUUCACUUAAAAUCCAAACUAGAUCU	0.579
CUUACCUGUGUUAGGCCAUGUUAUUUUAUAGCGAAGUCAUGUUCGAUAGGGAUGGUAUGAAAUGCUGCUGGUGGGCUGGUAAAUCCAAAGGGAUAAGGCUUCAGUGCUGU	0.773
GCGCGGUGGCUCACGCCUGUAAUCCCAGCAGUUUGGGAGGUCGAGGUAGGUGGAUCACCUGAGGUCGGGAGUUCGAGACCAACCUGACCAACAUGGAGAAACCCUGUCUC	0.238
GCCCAGCAGAGGCACCCCUCAUGAAGGAAGCCAUUGCACUGUGAAUACUGAACCUGCCUGCUGAACAGCCUGUCCCAUCCAUCCCUAUGAGUGACCAUCCGUCCGAAUGU	1.42
GCCAUCUGGAAUGCAAGGUGAGACUGGCCAGCCGGUCUGACUCUGAUCCCAGGUGACUGGCUCUUGUGAAGAGUCUUAAGUGUCCUGUGGUACCGUAGAGUGGAAAUGAU	0.543

Study 4
Target: Sal-like protein 4, full length isoform A (SALL4, Homo sapiens, UniProt Q9UJQ4, residues 1-1053)
Chain of UniProt Q9UJQ4 (whole entry, looked up): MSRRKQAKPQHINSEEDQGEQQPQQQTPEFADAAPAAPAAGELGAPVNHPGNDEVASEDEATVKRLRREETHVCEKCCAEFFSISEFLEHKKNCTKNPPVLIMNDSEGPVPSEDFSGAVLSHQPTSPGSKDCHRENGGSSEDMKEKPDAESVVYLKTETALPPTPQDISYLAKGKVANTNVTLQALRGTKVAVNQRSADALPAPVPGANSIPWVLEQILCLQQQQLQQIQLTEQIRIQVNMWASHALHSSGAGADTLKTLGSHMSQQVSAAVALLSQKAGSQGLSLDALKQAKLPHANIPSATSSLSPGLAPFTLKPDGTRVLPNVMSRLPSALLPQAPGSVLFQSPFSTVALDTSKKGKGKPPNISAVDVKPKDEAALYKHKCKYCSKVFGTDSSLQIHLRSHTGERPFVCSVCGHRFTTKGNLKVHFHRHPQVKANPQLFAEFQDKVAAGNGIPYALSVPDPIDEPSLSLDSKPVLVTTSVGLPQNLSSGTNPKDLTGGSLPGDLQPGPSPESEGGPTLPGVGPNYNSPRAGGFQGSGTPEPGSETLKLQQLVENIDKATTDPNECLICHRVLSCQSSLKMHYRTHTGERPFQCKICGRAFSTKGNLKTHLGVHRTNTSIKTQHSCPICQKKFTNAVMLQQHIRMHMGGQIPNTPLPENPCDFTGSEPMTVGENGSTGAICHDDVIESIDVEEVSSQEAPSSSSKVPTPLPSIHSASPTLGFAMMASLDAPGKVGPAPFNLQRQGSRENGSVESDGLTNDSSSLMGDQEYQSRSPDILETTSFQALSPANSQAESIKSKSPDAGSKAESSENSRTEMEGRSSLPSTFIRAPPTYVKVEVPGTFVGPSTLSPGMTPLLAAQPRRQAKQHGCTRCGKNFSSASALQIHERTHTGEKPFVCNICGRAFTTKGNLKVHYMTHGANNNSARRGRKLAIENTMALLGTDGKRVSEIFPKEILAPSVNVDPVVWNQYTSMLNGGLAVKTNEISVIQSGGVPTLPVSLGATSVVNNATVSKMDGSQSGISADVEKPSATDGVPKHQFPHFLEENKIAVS
Method: universal PBM
Form: double-stranded DNA, one strand shown
Sample: in vitro
Concentration: 600 nM
Setting: 8-mer, flanks averaged, mean of replicates
Reading: higher = stronger binding
Sequence	E-score
AAATTACA	0.326
TAGTGACA	0.101
AGGCGACT	-0.2
CCACACCA	0.119
TAACCAGA	0.098
TATACCCA	0.0648
AAGCTCAT	-0.0501
AGCTGAAT	0.107
ACTGGGCA	-0.175
ACTTCCGC	-0.0578
GTTAAGCA	0.0211
AAAGATTG	0.16
ACGTTAGT	0.176
CAGTTGTC	0.00369
AGCTCTCC	-0.166
CAGTGATG	0.131
CTTCAAAG	0.133
CCATGTGA	-0.087
TGTACTAA	0.21
TCCAACAA	0.0636
ACTGACAC	-0.0157
CACGCGTC	-6e-05
CGACATCG	-0.139

Study 5
Cell line: yeast with cyclin F-Cln2 chimera
Observed: cell growth
Mode: binder
Method: competitive growth deep sequencing
Form: peptide
Concentration: concentration not given
Setting: peptide tiling library
Reading: direction not given
Molecule	growth enrichment score
VLPGGVPSPGASLTSM	0.623
AEHPKPSACRNLFGPV	4.56
TRRRLFVENDSP	4.1
QNPCGSKACRRLFGPV	3.89
TSPGPVLLHPSPSTTQ	-0.0715
DGCSPIKNWSPMRL	0.3
NNIRKALSFDNRGEEH	1.13
GAEELEDLVHFSVSEL	0.72
RNRGPKLNAMLRLGVL	1.18
SGYLTDENEVGFRG	-0.0956
VRDLSYRLVFLACCVA	1.17
LENIEPLQVSFAVLSS	-0.565
PQWPCGKHKRVLIFAS	1.34
FQDSGYNELKSCSFDN	0.46
VLVRTSACRSLFGPVD	4
KDDDKAWEYEERDRRS	-0.478
NFETPEAETPIRSPFK	-0.407

Single results of other studies
Molecule	target	test	test system	conditions	how to read	endpoint	value
PhoQ, residues 284 288 289 292 302 303 TTCLQL	PhoP, residues 12 14 15 18 19 SMASL (Escherichia coli, UniProt P23836)	Sort-seq, refers to: YFP reporter	E. coli	PhoQ-PhoP variant library, added: 10 µM Mg2+	baseline: high Mg2+ state, higher = stronger signaling	fold induction	3.8
